Assay results gathered from unrelated publications.
Read-out: cell growth or viability

O=C(Nc1ccccc1)Nc1ccc(Oc2nnc(-c3ccc(Cl)cc3)c3ccccc23)cc1
cell death (HepG2; MTT; 1.25 µM): 94%

CCCCC(=O)Nc1ccc(-c2ccc3ncn(CCC)c(=O)c3c2)cc1
IC50 (HCC827; CCK-8; 72 h): 1.8 µM

c1cncc(-c2cccc(Oc3nccc(OC4CCCCC4)n3)c2)c1
EC50 (BJ; ATP luminescence; 72 h): > 13 µM

CCCCCC(=O)Nc1ccc(-c2ccc3ncn(CC4CC4)c(=O)c3c2)cn1
IC50 (HCC827; CCK-8; 72 h): 0.17 µM

CC(=NNC(=O)c1ccccc1O)c1ccc(Nc2nnc(-c3ccc(Cl)cc3)c3ccccc23)cc1
cell death (HepG2; MTT; 0.312 µM): 1.77%

COc1ccc(Cn2cnc3ccc(-c4ccc(NC(=O)c5ccccc5)nc4)cc3c2=O)cc1
IC50 (NCI-H1975; CCK-8; 72 h): > 10 µM

CC(=NNC(=O)c1ccccc1Cl)c1ccc(Nc2nnc(-c3ccc(Cl)cc3)c3ccccc23)cc1
cell death (HepG2; MTT; 0.625 µM): 71.7%

CCCn1cnc2ccc(-c3ccc(N4CCCCCC4=O)nc3)cc2c1=O
IC50 (HCC827; CCK-8; 72 h): > 10 µM

c1cncc(-c2cccc(Nc3nccc(NC4CCC4)n3)c2)c1
EC50 (BJ; ATP luminescence; 72 h): > 17 µM

O=C(Nc1ccccc1/N=c1\cc(-c2ccc3c(c2)OCO3)oc2ccccc12)N1CCNCC1
inhibition (NCI-H1975; CCK-8; 1 µM): -5.27%

CCCCn1cnc2ccc(-c3ccc(NC(=O)NCCc4ccccc4)nc3)cc2c1=O
IC50 (HCC827; CCK-8; 72 h): > 10 µM

O=C(Nc1ccc(Oc2nnc(-c3ccc(Cl)cc3)c3ccccc23)cc1)c1ccccc1
cell death (MCF7; MTT; 5 µM): 93.1%

CC(C)Nc1ccnc(Nc2cccc(-n3ccnc3)c2)n1
EC50 (BJ; ATP luminescence; 72 h): > 16 µM

NCCC(=O)Nc1ccccc1/N=c1\cc(-c2ccc3c(c2)OCO3)oc2ccccc12
inhibition (NCI-H1975; CCK-8; 1 µM): 4.64%

CCCCC(=O)Nc1ccc(-c2ccc3ncn(CC)c(=O)c3c2)cn1
IC50 (HCC827; CCK-8; 72 h): 0.16 µM

CC(=NNC(N)=S)c1ccc(Nc2nnc(-c3ccc(Cl)cc3)c3ccccc23)cc1
cell death (HepG2; MTT; 78 nM): 4.45%

NCCC(=O)Nc1ccccc1/N=c1\cc(-c2ccc3c(c2)OCCO3)oc2cc(F)ccc12
inhibition (NCI-H1975; CCK-8; 1 µM): -4.29%

c1cncc(-c2cccc(Nc3nccc(NC4CCNCC4)n3)c2)c1
EC50 (BJ; ATP luminescence; 72 h): > 10 µM

C[C@H](N)C(=O)Nc1ccccc1/N=c1\cc(-c2ccc3c(c2)OCO3)oc2ccccc12
inhibition (MOLM-13; CCK-8; 1 µM): 1.12%

CCC(=CCc1c(O)cc2c(c1O)C(=O)C[C@@H](c1ccc(O)cc1)O2)CC
inhibition (HeLa; MTT; 12.5 µM, 48 h): 7.15%

CCCCn1cnc2ccc(-c3ccc(NC(=O)C4CCCC4)nc3)cc2c1=O
IC50 (HCC827; CCK-8; 72 h): 3.63 µM

C[C@H](N)C(=O)Nc1ccccc1/N=c1\cc(-c2ccc3c(c2)OCCO3)oc2cc(F)ccc12
inhibition (MOLM-13; CCK-8; 1 µM): 2.17%

CC(C)Nc1ccnc(Nc2cccc(-c3ncco3)c2)n1
EC50 (BJ; ATP luminescence; 72 h): > 19 µM

CCCCC(=O)Nc1cc(F)c(-c2ccc3ncn(CCC)c(=O)c3c2)cn1
IC50 (NCI-H1975; CCK-8; 72 h): 6.62 µM

c1cncc(-c2cccc(Nc3nccc(OC4CCCCC4)n3)c2)c1
EC50 (BJ; ATP luminescence; 72 h): > 6 µM

S=C(Nc1ccccc1)Nc1ccc(Oc2nnc(-c3ccc(Cl)cc3)c3ccccc23)cc1
cell death (HepG2; MTT; 0.625 µM): 3.16%

COCCC(=O)Nc1ccccc1/N=c1\cc(-c2ccc3nc(N)oc3c2)oc2ccccc12
inhibition (NCI-H1975; CCK-8; 1 µM): 2.94%

COc1ccc(NC(=O)c2c(Nc3ccccc3)sc(C#N)c2NC(=O)CNc2ccccc2[N+](=O)[O-])cc1
viability (HCT-116; SRB; 0.1 µM, 48 h): 83.9%

FC(F)(F)C1(Nc2ccnc(Nc3cccc(-c4cccnc4)c3)n2)CC1
EC50 (BJ; ATP luminescence; 72 h): > 7 µM

O=C(Nc1ccccc1/N=c1\cc(-c2ccc3c(c2)OCO3)oc2ccccc12)N1CCOCC1
inhibition (MOLM-13; CCK-8; 1 µM): -0.24%

O=C(NCCCN1CCCCC1)c1ccc(-c2nc3ccc4[nH]ncc4c3c3c2CCCC3)cc1
GI50 (K562; resazurin; 72 h): > 10 µM

COc1ccc(NC(=O)c2c(Nc3ccccc3)sc(C(=O)NN=Cc3cc(OC)c(OC)c(OC)c3)c2NC(C)=O)cc1
viability (HCT-116; SRB; 10 nM, 48 h): 95.6%

CN(C)CCNC(=O)c1ccc(-c2nc3ccc4[nH]ncc4c3c3c2CCCCC3)nc1
GI50 (K562; resazurin; 72 h): 8.1 µM

CC(C)Nc1ccnc(Nc2ccccc2-c2ccccc2)n1
EC50 (BJ; ATP luminescence; 72 h): > 10 µM

CC(=NNC(=O)c1cccnc1)c1ccc(Nc2nnc(-c3ccc(Cl)cc3)c3ccccc23)cc1
cell death (HepG2; MTT; 0.625 µM): 50.1%

CN(C)CC1(NC(=O)c2ccc(-c3nc4ccc5[nH]ncc5c4c4c3CCCC4)cc2)CC1
GI50 (K562; resazurin; 72 h): 5.3 µM

CC(=O)Nc1ccc(Oc2nnc(-c3ccc(Cl)cc3)c3ccccc23)cc1
viability (HepG2; MTT; 78 nM, 24 h): 99.4%

Cc1n[nH]c2ccc3nc(-c4ccc(C(=O)N(C)CCN(C)C)cc4)c4c(c3c12)CCC(C)(C)C4
GI50 (K562; resazurin; 72 h): 5.9 µM

Some of these lines once more:
CC(=NNC(=O)c1ccccc1O)c1ccc(Nc2nnc(-c3ccc(Cl)cc3)c3ccccc23)cc1
cell death (HepG2; MTT; 0.312 µM): 1.77%

Cc1n[nH]c2ccc3nc(-c4ccc(C(=O)N(C)CCN(C)C)cc4)c4c(c3c12)CCC(C)(C)C4
GI50 (K562; resazurin; 72 h): 5.9 µM

CCC(=CCc1c(O)cc2c(c1O)C(=O)C[C@@H](c1ccc(O)cc1)O2)CC
inhibition (HeLa; MTT; 12.5 µM, 48 h): 7.15%

C[C@H](N)C(=O)Nc1ccccc1/N=c1\cc(-c2ccc3c(c2)OCO3)oc2ccccc12
inhibition (MOLM-13; CCK-8; 1 µM): 1.12%

O=C(Nc1ccccc1/N=c1\cc(-c2ccc3c(c2)OCO3)oc2ccccc12)N1CCOCC1
inhibition (MOLM-13; CCK-8; 1 µM): -0.24%
